Measurements of several laboratories.
Parts stem from different laboratories: compare values within a part only. Substitutions count along the parent as printed.

Study 1 — technique: EMSA with sequencing; molecule type: double-stranded DNA, one strand shown; matrix: in vitro; concentration: 10 and 20 nM; reference: negative control set to 0; reading: higher = stronger binding
Target: Hepatocyte nuclear factor 3-alpha (Foxa1, Mus musculus, UniProt P35582, residues 1-468, full length assumed)
Setting: whole designed probe, mean of two concentrations, ends assumed
Target sequence (chain): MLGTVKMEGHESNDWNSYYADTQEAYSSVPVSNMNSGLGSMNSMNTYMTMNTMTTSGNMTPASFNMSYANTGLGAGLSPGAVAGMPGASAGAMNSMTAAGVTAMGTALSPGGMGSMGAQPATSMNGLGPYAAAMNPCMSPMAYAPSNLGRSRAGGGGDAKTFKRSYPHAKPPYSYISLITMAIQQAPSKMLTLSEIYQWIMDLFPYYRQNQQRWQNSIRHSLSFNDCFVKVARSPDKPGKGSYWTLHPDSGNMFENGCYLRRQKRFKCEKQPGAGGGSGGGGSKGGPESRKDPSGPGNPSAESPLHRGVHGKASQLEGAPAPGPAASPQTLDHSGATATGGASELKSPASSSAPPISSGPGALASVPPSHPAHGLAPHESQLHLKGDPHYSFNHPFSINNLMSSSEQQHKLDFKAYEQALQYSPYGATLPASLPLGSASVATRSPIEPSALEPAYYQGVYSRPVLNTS
Strand | normalised bound fraction [ratio]
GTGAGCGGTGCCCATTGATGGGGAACAAACAAGTTTTAAAATTACAAATGAATGCTCAAGAGGAGAACAAAGTTCTAGAGCCAGTTTTAAGGGTCAAATGGTAAACAAAAGGTCAAAAGGTAATCTAGCCCATATCTATGGTTTCAGCTAAGAGCTCAGAGGGGAGCTAGCTAGTTACTCATTATCGCAATGAATTAGCATAACACTAAGGAGAATTACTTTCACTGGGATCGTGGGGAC | 0.311
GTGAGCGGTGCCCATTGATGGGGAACTTTGAGATTAATATGACAGTGTTGTTTCAACTTCATTGGTCAGTACCTTCTTATTCCTTTTCTATATGGATAGATTTGCCTTATATTTTAGATGTTTACTTTGAGTTTGTATTTTTCGTATTCAAAACAGTTAAATCAGAATGTTAAACTTCTAACAACAGATTCTCTTTGAACATTTTTACAAAAGTTTAAATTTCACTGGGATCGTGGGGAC | 0.288
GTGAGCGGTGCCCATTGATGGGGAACCTGAGGTCAGGAGGCCGGCATGCGTGACCCTTTGTCTCTGGGAGTCCAGATTTCCTAATGCAGGGCTCTTTCTAACACAGAAAGCAAGGTTGAGTAATTTCATGAGCTCATGCTCTGTTGGCACGTAGGGCATTGCTGTGTTGATTCACTCATGGAAACAGGAATGCTTCTGTACACCCTGTGCTTGTAACGTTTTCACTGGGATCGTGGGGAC | -0.0235
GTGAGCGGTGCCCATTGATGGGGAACAATAGAATAAAAAAAATAGATTACACCATTTTAACAAATAGAGTCTATCACATAGTGTGAATGTGTGCCTGAATGTATGCACTGAGTCATAATATAAACATGCGTTTTCTGTGGGTTGTGGTCACTGCATGAAGGGAATTATCTGAGATCACTTGGCTATAGGGAAGTTAGACTTCATGGTTATTGTCTACTATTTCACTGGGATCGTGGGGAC | 0.161
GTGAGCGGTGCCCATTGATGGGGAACCTCCAGGGTAGTTGTCCTTCCTGTGGCTGCTCACTGATCCAGGCTACTTTGATCTTGTGACTCAAAGTTCAACAAAATGTGGATGCGTCATTTTATTTACACTTCAATGGCCAGAACTTACGAAATGGCCTCATCCAGTTGCAAGAAGTTTGGGAAATGTAGCCTTCCATATTTACAGGAATAAATGAAAAACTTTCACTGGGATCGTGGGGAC | 0.254
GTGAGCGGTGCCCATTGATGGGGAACGGTTAGAGGAAGTAAGGTAATGCAAGTGTTAAATTATGTGTGAAAGATGGGATGCCTGGAAGAAATTCATATCACAAATATTACAGAAAGATAAGTAATCTGGGATTTAATATTCATGGATTTTTCTCCTATTTTATTTAAAATGTCAGACCTGTCTTAATGAGGTTCTACTGACATTTATTCTTTTTTAATTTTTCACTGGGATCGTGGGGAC | -0.00321

Study 2 — technique: RNA Bind-n-Seq; molecule type: RNA; matrix: in vitro; concentration: 1 µM; setting: whole 134-nt RNA, ends assumed; added: 150 mM KCl; reference: input library; reading: higher = stronger binding
Target: Ras GTPase-activating protein-binding protein 1, RRM domain (G3BP1, Homo sapiens, UniProt Q13283)
Sequence of UniProt Q13283 (whole entry, looked up): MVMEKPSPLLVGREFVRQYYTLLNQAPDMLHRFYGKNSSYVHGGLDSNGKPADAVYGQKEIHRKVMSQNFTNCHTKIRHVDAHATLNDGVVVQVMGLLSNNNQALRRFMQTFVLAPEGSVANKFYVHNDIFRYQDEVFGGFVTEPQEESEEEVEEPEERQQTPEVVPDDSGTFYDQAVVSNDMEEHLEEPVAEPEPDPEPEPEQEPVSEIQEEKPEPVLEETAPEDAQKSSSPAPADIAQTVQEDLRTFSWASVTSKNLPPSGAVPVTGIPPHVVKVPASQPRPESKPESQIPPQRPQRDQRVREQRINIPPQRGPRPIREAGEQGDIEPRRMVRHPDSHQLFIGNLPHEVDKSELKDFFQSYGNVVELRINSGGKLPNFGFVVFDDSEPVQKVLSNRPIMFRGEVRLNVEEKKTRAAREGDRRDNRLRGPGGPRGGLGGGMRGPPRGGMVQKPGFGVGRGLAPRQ
Strand | log2 enrichment
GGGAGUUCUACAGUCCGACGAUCUCAAGUCCUGUGCUACACAUCGUAUGUACCGAAUCGGGGUUGGGGUUGGGGUUGGAAAGUAUUAUGUUACGCCGUUCGGAUCUGCACUUCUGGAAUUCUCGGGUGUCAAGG | -0.115
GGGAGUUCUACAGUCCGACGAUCAGUCCUGUGCUACACAUCGUAUGUACCGAAUCGGGGAGGGGUUUUUUUGGGGAGGGGAAAGUAUUAUGUUACGCCGUUCGGAUCUGCACUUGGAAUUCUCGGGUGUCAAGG | 0.986
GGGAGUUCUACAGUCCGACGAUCUCCUGUGCUACACAUCGUAUGUACCGAAUCAAAUUUUUUUAAACCCAAACCCCCCCAAAAAAGUAUUAUGUUACGCCGUUCGGAUCUGCAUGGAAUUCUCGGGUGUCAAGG | -1.17
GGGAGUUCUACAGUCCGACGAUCCACAGACAACACGCACCCACACAGACAGAGAGGGAAGGGGUUGGGAUGGGGACAGGGUGCACAGCAGGGCGGGGUAGGACCCCAGCCCCUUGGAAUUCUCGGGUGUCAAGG | -0.0301
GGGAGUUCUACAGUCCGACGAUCUCCUGUGCUACACAUCGUAUGUACCGAAUCGGGGAAAGGGGUUUUUGGGGAAAAAGGGGAAAGUAUUAUGUUACGCCGUUCGGAUCUGCAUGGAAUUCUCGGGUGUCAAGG | 0.925
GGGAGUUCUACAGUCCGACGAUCACCAUGCAGGUGGGCAUCUUUGGGAAGUGGGGCAAGGGGGGGAUAGGGAGGGGGGUAACACUUUGGGAACAGGUGGUCCCAGAAAGUUUCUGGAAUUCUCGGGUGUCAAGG | -0.531
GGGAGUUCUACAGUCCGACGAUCUAACUUUAGAGGAGGAUCUGAUGGAUAUGGCAGUGGACGUGGAUUUGGGGAUGGCUAUAAUGGCUAUGGAGGAGGACCUGGAGGUGGCAAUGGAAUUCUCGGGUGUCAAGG | -0.366
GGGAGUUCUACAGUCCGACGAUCUAACUUUAGAGGAGGAUCUGAUGGAUAUGGCAGUGGACGUGGAUUAGGGGAUGGCUAUAAUGGGUAUGGAGGAGGACCUGGAGGUGGCAAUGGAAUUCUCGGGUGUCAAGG | -0.396
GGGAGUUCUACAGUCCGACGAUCUGGCCCUGGUGGCAUGCGGGGAGGAAGAGGUGGCCUCAUGGAUCGUGGUGGUCCCGGUGGAAUGUUCAUAGGUGGCCGUGGUGGAGACAGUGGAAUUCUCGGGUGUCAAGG | 1.68
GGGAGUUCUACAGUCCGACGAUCAAGUCCUGUGCUACACAUCGUAUGUACCGAAUCGGGGUUUGGGGAAAGGGGAGGGGAAAGUAUUAUGUUACGCCGUUCGGAUCUGCACUUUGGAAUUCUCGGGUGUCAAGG | 1.31

Study 3 — technique: RNA Bind-n-Seq; molecule type: RNA; matrix: in vitro; concentration: 365 nM; reference: no-protein control; reading: higher = stronger binding
Target: RNA binding protein fox-1 homolog 2, RRM domain, GST-SBP tag (RBFOX2, Homo sapiens, UniProt O43251-10, residues 100-194)
Setting: natural RNA segment, single round, ends assumed
Residues (chain): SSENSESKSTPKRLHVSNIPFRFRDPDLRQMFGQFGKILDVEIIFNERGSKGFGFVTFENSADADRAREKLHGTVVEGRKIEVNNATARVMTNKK
Strand | RBNS enrichment (R)
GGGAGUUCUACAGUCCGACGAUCUUUGAGCCUGGCUAAUGAGAAAAAGAACAAAGUAGGACCAUGACCCAGUGUUCUCCUGUAAAUCUCACUGUAAAAAUCUCAAUGCAAAAACACUGAGACAGGAGUGAGACUGGAAUUCUCGGGUGCCAA | 0.219
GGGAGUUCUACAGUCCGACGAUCCCCUUAAAUACAGCAGAACCUGGAGAAGGUCAUACUUCAAAGGUCGAUUUUGAGUCCGAAUAAAGAAAGACCUAGUAACAGAUAGUUUUUUUUUGUUCAUUUUCUUCUACUGGAAUUCUCGGGUGCCAA | 0.345
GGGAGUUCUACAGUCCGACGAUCCUCCCAACUUGUUUGUCCCUAGAAGCAGACAACUUUGAACCAAAAGCAUCUCAGUCAAGCAUCUAAAACAGGGGGCAGUCUGUGUAUACAAGAGCCCACCUCCUGCUGUGUGGAAUUCUCGGGUGCCAA | 0.311
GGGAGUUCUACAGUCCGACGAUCACAGCAGAAGAGGAAUGUCGCCCACUGAGGCCACCCAGAUGCAGAGUCUAGGAUUCCUUGCCCACUGGCCUUUUGGAAAUGAAGCACCACUGGCCUGAAUAAUUAGCCUUUGGAAUUCUCGGGUGCCAA | 0.406
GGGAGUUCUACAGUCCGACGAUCCGAUGCUGACCUCACCUGGUCCUCCGCCUACUGUCCCUCUCAGUGCCUUCUCUCAGCUCCCAGGCCAACAGUAGCCAAACCCCUAGAGACAGUGAUGCCUGCCCGCACCCUGGAAUUCUCGGGUGCCAA | 0.718
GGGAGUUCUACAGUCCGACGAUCGGGAAGACAAAGGAAACGUCUUUGAGAAGCCCCUUCAUAUUUAUUUAUUUAUCUCUUCCUGAACCAUGAAUUUCAUAUGUGGAAUAUUGCUAUAUUGACAGAUUCUUGCCUGGAAUUCUCGGGUGCCAA | 0.556
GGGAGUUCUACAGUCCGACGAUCUCGUCUUUUAUUUUCUUGUGGCAUUAUUAGGCAGGUAAGCUUGAUGUAGACCAUUGACUGACCCCAGUCAAAGAUAGGUCCUAGUGAUAUAAGAACACUAGCCCAAAAGGUGGAAUUCUCGGGUGCCAA | 0.364
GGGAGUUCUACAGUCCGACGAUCAUGCUUUUAUCUUGCUAUAGAAUAAACACAUUUCAGUAAAAACUGUGGACUGUAUUUUGAUGCAACAACAAAGAAACUGUUCACUUUUCAAAUAAAAUGAUAUGUCAGAUUGGAAUUCUCGGGUGCCAA | 0.396
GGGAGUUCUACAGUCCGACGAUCGUAUUGAAAUAAAGUAGAAAAUGUUCGGUAUCAUAUUUGUAACUAUCAACUUUUAAAAACAUUUGACUGUUUUUGUUACAUGCAUUGUAUUUCUGCUUUGUCUAUAAGAAUGGAAUUCUCGGGUGCCAA | 0.592
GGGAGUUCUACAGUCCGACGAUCCAUGGAAACCCAAAGGCCGUGUGUGUUUAGAAGCCUAACUGUCACAUCAAGCAUCAUCGUCCCCAUGCAACAACAACCAUCACCUUAUACAUCACUUCCUGUUUUAUGCAUGGAAUUCUCGGGUGCCAA | 0.895
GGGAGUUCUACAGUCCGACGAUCAGUUCACUUUGGAUCCUUAUUUUGUAUGACUUCUGCUGAAGGACAGAACAUUGCCUUCCUCGUGCAGAGCUGGGGCUGCCAGCCUGAGCGGAGGCUCGGCCGUGGGCCGGUGGAAUUCUCGGGUGCCAA | 1.39
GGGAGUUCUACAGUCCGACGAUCAAUUCUAUGGAAUAGUUCUGUAUAUAGGGCACAAGUAAAGGCAUUGUCCAAAGUUUAUUUAUUUAUUUAUUACCCUAAGAAUGCUUUGCCAUAACCACAUUUAAUGGGAAUGGAAUUCUCGGGUGCCAA | 0.625

Study 4 — target: CCNE2, cyclin fold, Cln2 fusion (human); technique: yeast growth competition, sequencing; matrix: yeast; setting: weak parent motif; reference: not given; reading: higher = stronger binding
Parent: LLGL2 docking peptide (human); KSLKKSLRQSFRR
Substitution | normalised enrichment score
R13A | 0.566
L7A | 0.863
K4A | 0.665
S6A | -0.00745
F11A | 0.0352
L3A | 0.291
S10A | 0.463
